Assay results gathered from unrelated publications.
Numbered parts are unrelated; each lists some results of a single study.
Chain of UniProt Q15569 (whole entry, looked up): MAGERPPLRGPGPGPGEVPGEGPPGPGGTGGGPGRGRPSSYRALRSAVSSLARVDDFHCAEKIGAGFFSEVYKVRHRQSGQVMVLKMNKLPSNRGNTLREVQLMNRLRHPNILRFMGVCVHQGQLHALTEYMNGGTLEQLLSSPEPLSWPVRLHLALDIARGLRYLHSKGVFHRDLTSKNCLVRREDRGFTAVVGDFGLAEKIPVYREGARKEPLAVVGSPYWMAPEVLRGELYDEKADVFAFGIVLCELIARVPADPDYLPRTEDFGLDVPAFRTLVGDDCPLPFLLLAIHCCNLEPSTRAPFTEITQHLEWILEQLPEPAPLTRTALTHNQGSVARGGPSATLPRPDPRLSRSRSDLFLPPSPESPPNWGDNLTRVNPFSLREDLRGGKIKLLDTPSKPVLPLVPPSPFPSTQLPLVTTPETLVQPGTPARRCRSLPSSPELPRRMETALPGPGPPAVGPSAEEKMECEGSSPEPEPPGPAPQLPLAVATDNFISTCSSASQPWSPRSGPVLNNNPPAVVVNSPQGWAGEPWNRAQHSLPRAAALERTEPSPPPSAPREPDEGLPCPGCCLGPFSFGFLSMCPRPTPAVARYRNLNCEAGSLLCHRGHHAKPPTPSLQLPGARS
Chain of UniProt P42336 (whole entry, unmodified, looked up): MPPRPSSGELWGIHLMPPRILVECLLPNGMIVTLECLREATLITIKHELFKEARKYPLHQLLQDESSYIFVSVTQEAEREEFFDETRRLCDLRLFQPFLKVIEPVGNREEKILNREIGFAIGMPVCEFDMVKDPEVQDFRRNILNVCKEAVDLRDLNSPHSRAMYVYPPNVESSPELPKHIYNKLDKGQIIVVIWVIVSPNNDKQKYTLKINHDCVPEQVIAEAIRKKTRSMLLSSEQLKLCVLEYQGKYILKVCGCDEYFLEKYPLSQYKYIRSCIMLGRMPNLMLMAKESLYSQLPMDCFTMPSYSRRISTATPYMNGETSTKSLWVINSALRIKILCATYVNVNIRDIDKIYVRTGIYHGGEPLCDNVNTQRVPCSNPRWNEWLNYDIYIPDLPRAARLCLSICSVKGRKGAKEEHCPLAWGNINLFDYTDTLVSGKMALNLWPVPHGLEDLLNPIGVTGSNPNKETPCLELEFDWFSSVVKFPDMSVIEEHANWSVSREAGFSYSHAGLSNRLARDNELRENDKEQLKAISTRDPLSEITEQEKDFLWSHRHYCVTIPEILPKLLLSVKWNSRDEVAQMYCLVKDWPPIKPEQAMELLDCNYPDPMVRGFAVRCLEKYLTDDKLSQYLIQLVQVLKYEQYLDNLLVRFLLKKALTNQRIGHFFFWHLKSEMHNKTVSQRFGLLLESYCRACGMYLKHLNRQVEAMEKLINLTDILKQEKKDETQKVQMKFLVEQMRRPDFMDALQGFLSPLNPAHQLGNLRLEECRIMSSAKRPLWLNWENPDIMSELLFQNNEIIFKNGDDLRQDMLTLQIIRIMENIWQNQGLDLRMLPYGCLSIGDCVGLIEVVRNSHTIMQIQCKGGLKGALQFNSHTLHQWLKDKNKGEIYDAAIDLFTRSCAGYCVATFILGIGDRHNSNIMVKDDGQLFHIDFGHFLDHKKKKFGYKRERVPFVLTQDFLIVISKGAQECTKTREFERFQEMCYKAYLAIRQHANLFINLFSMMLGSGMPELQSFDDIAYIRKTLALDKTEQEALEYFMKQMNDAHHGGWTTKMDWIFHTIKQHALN
Chain of UniProt P20794 (whole entry, looked up): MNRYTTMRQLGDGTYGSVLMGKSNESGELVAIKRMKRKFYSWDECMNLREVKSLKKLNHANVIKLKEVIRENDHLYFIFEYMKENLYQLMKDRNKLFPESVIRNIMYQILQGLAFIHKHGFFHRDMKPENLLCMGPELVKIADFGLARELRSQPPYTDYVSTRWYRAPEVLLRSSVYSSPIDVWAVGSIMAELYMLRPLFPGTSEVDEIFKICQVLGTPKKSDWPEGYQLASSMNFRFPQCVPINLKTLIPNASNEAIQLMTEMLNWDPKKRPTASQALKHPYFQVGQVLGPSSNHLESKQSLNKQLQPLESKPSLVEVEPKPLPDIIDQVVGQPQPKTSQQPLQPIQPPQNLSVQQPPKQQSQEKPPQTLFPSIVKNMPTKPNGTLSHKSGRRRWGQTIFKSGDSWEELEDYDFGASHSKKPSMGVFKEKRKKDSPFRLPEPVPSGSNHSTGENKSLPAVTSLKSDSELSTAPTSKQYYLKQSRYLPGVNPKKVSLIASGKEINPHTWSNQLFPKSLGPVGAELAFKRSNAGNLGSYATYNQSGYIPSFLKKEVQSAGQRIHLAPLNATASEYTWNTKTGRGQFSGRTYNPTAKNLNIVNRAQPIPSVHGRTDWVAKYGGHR
Chain of UniProt O60285 (whole entry, looked up): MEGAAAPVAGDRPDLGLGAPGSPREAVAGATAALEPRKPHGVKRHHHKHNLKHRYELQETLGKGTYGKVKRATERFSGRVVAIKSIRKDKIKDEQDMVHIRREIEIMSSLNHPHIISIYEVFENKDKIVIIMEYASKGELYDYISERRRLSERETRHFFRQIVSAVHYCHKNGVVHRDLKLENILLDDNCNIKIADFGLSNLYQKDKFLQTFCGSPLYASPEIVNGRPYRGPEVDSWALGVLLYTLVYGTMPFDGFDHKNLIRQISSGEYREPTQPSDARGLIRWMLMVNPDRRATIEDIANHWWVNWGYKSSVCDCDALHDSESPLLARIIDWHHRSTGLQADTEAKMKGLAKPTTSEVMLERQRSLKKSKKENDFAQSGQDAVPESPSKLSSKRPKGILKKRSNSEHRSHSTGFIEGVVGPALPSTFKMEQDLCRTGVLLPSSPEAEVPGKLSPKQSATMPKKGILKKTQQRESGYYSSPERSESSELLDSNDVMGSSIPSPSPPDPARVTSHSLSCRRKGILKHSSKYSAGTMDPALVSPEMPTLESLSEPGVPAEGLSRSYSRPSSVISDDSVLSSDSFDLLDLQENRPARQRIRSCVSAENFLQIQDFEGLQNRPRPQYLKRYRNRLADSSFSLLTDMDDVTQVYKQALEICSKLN
Chain of UniProt Q9Y6M4 (whole entry, looked up): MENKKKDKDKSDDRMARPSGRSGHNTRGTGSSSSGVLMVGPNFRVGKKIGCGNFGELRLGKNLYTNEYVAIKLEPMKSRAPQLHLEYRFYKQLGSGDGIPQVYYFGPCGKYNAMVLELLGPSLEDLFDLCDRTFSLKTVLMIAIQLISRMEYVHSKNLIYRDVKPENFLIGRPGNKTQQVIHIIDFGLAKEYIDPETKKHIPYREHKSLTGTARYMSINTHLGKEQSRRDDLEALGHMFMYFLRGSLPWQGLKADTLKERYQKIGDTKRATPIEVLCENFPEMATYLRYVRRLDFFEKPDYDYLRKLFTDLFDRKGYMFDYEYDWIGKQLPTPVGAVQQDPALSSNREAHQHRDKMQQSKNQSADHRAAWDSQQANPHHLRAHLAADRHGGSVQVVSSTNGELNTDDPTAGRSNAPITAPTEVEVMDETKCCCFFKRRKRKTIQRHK
Chain of UniProt P16234 (whole entry, looked up): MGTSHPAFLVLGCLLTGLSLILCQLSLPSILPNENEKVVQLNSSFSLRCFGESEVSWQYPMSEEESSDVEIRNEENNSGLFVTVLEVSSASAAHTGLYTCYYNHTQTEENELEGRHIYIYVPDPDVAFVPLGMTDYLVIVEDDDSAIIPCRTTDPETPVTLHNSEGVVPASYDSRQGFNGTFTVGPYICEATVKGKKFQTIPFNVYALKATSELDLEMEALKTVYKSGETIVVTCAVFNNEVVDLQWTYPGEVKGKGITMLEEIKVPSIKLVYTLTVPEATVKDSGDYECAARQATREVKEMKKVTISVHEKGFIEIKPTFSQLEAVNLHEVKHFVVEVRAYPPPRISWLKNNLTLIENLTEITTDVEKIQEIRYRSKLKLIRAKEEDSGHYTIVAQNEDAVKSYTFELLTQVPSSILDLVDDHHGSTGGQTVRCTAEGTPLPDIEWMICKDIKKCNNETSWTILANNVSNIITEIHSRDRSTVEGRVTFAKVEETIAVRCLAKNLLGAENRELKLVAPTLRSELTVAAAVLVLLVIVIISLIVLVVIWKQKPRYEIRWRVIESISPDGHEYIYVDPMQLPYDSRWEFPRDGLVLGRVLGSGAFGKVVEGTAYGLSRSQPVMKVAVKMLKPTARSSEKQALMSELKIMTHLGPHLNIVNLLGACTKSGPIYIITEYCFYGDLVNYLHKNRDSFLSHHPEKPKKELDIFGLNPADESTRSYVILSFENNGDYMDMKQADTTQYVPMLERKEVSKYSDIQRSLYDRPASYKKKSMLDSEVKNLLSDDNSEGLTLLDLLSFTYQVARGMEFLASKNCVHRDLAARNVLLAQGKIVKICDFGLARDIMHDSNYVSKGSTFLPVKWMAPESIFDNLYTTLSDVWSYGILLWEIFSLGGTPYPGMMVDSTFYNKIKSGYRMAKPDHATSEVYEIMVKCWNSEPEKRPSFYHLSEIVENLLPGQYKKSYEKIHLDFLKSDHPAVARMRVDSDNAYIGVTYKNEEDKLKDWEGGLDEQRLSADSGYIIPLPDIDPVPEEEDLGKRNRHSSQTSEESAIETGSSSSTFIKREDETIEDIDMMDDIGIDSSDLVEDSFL
Chain of UniProt P42685 (whole entry, looked up): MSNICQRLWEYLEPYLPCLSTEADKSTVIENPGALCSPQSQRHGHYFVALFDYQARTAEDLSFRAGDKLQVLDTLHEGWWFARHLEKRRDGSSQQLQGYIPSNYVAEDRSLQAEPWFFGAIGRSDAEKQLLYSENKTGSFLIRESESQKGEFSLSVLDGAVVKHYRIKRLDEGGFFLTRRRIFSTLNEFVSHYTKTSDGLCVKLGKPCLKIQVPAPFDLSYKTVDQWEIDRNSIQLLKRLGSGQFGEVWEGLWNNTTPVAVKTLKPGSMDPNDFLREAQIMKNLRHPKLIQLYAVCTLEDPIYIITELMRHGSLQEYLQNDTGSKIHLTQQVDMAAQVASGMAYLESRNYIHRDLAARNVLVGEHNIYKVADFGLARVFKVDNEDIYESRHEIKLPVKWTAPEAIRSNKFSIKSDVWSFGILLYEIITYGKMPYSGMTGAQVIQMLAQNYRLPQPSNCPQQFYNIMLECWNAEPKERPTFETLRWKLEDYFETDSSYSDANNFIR

Study 1 — species: mouse; matrix: microsomes or S9; tested at: 2 µM; time: 0.5 h
CN(Cc1ccccc1)c1nc2ccccc2n1CC(O)COc1ccccc1 (centres unmarked) gave a remaining compound of 3.72%.
The remaining compound of CCc1nc(C)sc1Cn1cc(-c2cn(CC)nc2C)nn1 is reported as 4.58%.
Cc1ccccc1S(=O)(=O)N(CCn1nnc(C(=O)O)c1C(=O)O)C1CCCCC1 has a remaining compound of 93%.

Study 2 — tested at: 1 µM
SMILES: O=C(NS(=O)(=O)c1ccc(NCC2CCOCC2)c([N+](=O)[O-])c1)c1ccc(N2CCN(Cc3ccc(C(F)(F)F)cc3-c3ccc(Cl)cc3)CC2)cc1Oc1cnc2[nH]ccc2c1
For EIF2AK1 (Homo sapiens, UniProt Q9BQI3); cell-free assay, competition with immobilised ligand: remaining binding read 84%.
The remaining binding was 100% (PIP5K1C (Homo sapiens, UniProt O60331); cell-free assay, competition with immobilised ligand).
It gave 100% for remaining binding (TESK1 (Homo sapiens, UniProt Q15569); cell-free assay, competition with immobilised ligand).
CDKL3 (Homo sapiens, UniProt Q8IVW4); cell-free assay, competition with immobilised ligand — remaining binding: 95%.
The remaining binding was 98% (NUAK1 (Homo sapiens, UniProt O60285); cell-free assay, competition with immobilised ligand).
MAPK8 (Homo sapiens, UniProt P45983); cell-free assay, competition with immobilised ligand — remaining binding: 78%.
The remaining binding was 51% (PIK3CA (Homo sapiens, UniProt P42336, M1043I); cell-free assay, competition with immobilised ligand).
PRKCE (Homo sapiens, UniProt Q02156); cell-free assay, competition with immobilised ligand — remaining binding: 100%.
The remaining binding was 97% (MAK (Homo sapiens, UniProt P20794); cell-free assay, competition with immobilised ligand).
The remaining binding was 100% (CDC42BPG (Homo sapiens, UniProt Q6DT37); competition binding).
It gave 100% for remaining binding (STK17A (Homo sapiens, UniProt Q9UEE5); cell-free assay, competition with immobilised ligand).
FRK (Homo sapiens, UniProt P42685); cell-free assay, competition with immobilised ligand — remaining binding: 100%.
PDGFRA (Homo sapiens, UniProt P16234); cell-free assay, competition with immobilised ligand — remaining binding: 100%.
It gave 100% for remaining binding (EPHA4 (Homo sapiens, UniProt P54764); cell-free assay, competition with immobilised ligand).
The remaining binding was 96% (ULK1 (Homo sapiens, UniProt O75385); cell-free assay, competition with immobilised ligand).
For CSNK1G3 (Homo sapiens, UniProt Q9Y6M4); cell-free assay, competition with immobilised ligand: remaining binding read 75%.

Study 3 — technique: competition protein-binding microarray; molecule type: double-stranded DNA, one strand shown; matrix: in vitro; tested at: 2 µM; added: Cbf1 competitor, 0.05 µM; reading: higher = stronger binding; shared flanks, not repeated: … GTCTTGATTCGCTTGACGCTGCTG
Target: Phosphate system positive regulatory protein PHO4, full length, GST-tagged (PHO4, Saccharomyces cerevisiae, UniProt P07270, residues 1-312)
Notes: whole 60-bp probe, lowest competitor level
Residues (chain): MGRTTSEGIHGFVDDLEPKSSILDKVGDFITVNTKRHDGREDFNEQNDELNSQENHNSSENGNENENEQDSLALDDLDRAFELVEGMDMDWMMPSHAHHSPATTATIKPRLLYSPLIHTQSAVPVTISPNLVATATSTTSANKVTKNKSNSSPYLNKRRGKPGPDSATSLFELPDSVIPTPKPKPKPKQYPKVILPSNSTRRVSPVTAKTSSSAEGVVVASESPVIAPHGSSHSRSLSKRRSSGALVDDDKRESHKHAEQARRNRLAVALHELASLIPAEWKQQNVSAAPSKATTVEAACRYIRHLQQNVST
The fluorescence intensity of `GTCTTGTCTCATTTTCACGTGCGCTTCCCCACTTCA` is reported as 15700 a.u.
`GGGATATTCCACCATCACGTCTGCGCCAAGCCACAA` gave a fluorescence intensity of 4330 a.u.
With `CTTTCCCGATCTTGGACAGTGGGTGTAGCACATTTG` the fluorescence intensity was 4200 a.u.
For `GTTGGACCTTGGTTCCACGGGGTTCATTTCAGGCTG`, the fluorescence intensity was 7340 a.u.
For `TTAAGTCTATTATCAAGCATGATAACCATCATCAAT`, the fluorescence intensity was 4420 a.u.
`CATACCCAACCTTGGGTTGTGGGTGAAGATATTTGT` has a fluorescence intensity of 5220 a.u.
For `CTTTCCCGATCTTGTGCAGTGGGTGTAGCACATTTG`, the fluorescence intensity was 5240 a.u.
With `CGGCAAGACATGTCCCACGTTATAAGGCAATTTCCA` the fluorescence intensity was 9290 a.u.

Study 4 — cell line: mouse MPNST tumor cells; technique: high-content immunofluorescence imaging; measured: nuclear SOX9; tested at: 10 µM; time: 12 h; notes: mean of 2 replicates; relative to: DMSO control; reading: higher = more nuclear SOX9
OCCN1CCN(CCCN2c3ccccc3C=Cc3ccccc32)CC1: “nuclear SOX9 intensity” 167 % of DMSO.
Under “nuclear SOX9 intensity”, CCN(CCCCOC(=O)c1ccc(OC)c(OC)c1)C(C)Cc1ccc(OC)cc1 (centres unmarked) is recorded as 145 % of DMSO.
Nc1ncnc2c1ncn2[C@@H]1O[C@H](CO)[C@@H](O)[C@H]1O — result for “nuclear SOX9 intensity”: 96.4 % of DMSO.

Mixed results
For O=C(Cc1ccccc1)Nc1ccc([C@@H](O)[C@H]2COCC(=O)N2Cc2ccccc2)cc1, the IC50 was no less than 100 µM (ADRB1 (Homo sapiens, UniProt P08588); antagonist).
For COc1ccccc1N1CCN(CC(O)COc2cccc3ccccc23)CC1 (centres unmarked), the inhibition was -12.2% (Sarcocystis neurona; parasite growth; 10 µM, 96 h).
